Measured values gathered from unrelated publications.
Each line is one published result; not all experiments were run side by side. ± marks the error that the study gave.
Organism: SARS-CoV-2

O=C(O)C(O)=CC(=O)C1(Cc2ccc(Cl)cc2)CCN(Cc2ccc3ccccc3c2)CC1  inhibition (viral replication; VeroE6; 50 µM): 50%
COc1ccc(S(=O)(=O)Nc2cccc(C(=O)NC3CCN(c4ncnc5[nH]cnc45)CC3)c2)cc1  IC50 (viral infection; Wuhan-Hu-1): 1760 nM
O=C(NCc1ccc(F)cc1)C1C(=O)N(O)C(=O)c2cc([N+](=O)[O-])ccc21 (stereo not shown)  EC50 (viral replication; VeroE6-TMPRSS2): > 50000 nM
O=C(NC1CCN(c2ncnc3[nH]cnc23)CC1)c1cccc(NS(=O)(=O)c2ccc(Cl)cc2)c1  relative infection (Wuhan-Hu-1; 22.22 µM; baseline: untreated infected cells): 26.1%
CC[C@H](C)[C@H](NC(=O)[C@H](C)NC(=O)[C@H](CCC(=O)O)NC(=O)[C@H](CCC(=O)O)NC(=O)[C@H](CC(C)C)NC(=O)[C@H](CCCCN)NC(=O)[C@H](CCCCN)NC(=O)[C@H](CCSC)NC(=O)[C@H](CCC(=O)O)NC(=O)[C@H](Cc1ccc(O)cc1)NC(=O)[C@H](CCC(=O)O)NC(=O)[C@H](CC(C)C)NC(=O)[C@H](CC(=O)O)NC(=O)[C@H](CC(C)C)NC(=O)[C@H](Cc1ccccc1)NC(=O)[C@@H](NC(=O)[C@@H](NC(=O)[C@H](CC(N)=O)NC(=O)[C@@H](NC(=O)[C@H](CCC(N)=O)NC(=O)[C@H](CC(=O)O)NC(=O)[C@H](CC(C)C)NC(=O)[C@H](CO)NC(=O)[C@H](CC(C)C)NC(=O)[C@H](CC(=O)O)NC(=O)[C@@H]1CCCN1C(=O)[C@H](C)N)[C@@H](C)CC)C(C)C)[C@@H](C)O)C(=O)N[C@@H](CCCCN)C(=O)N[C@@H](CCCCN)C(=O)N[C@@H](CC(C)C)C(=O)N[C@@H](CCC(=O)O)C(=O)N[C@@H](CCC(=O)O)C(=O)N[C@@H](CO)C(=O)N[C@@H](Cc1ccc(O)cc1)C(=O)N[C@H](C(=O)N[C@@H](CC(=O)O)C(=O)N[C@@H](CC(C)C)C(=O)N[C@@H](CCCCN)C(=O)N[C@@H](CCC(=O)O)C(=O)N[C@@H](CC(C)C)C(=O)O)[C@@H](C)CC  IC50 (pseudovirus infection, inhibitor, luciferase; Caco-2, D614G pseudovirus; 24 h): 350 nM
Nc1ccc([As]2SCC(C(=O)O)CS2)cc1 (stereo not shown)  pseudovirus entry (spike-pseudotyped lentivector; A549 expressing ACE2 and TMPRSS2; 10 µM; baseline: untreated): 54%
O=C(O)C(O)=CC(=O)c1ccc2cc(O)c(O)cc2c1  EC50 (viral replication; VeroE6-TMPRSS2): > 50000 nM
Cc1ccc(S(=O)(=O)Nc2cccc(C(=O)NC3CCN(c4ncnc5[nH]cnc45)CC3)c2)cc1Cl  relative infection (Wuhan-Hu-1; 0.2743 µM; baseline: untreated infected cells): 66.4%
CC[C@H](C)[C@H](NC(=O)[C@H](C)NC(=O)[C@H](CCC(=O)O)NC(=O)[C@H](CCC(=O)O)NC(=O)[C@H](CC(C)C)NC(=O)[C@H](CCCCN)NC(=O)[C@H](CCCCN)NC(=O)[C@H](CCSC)NC(=O)[C@H](CCC(=O)O)NC(=O)[C@H](Cc1ccc(O)cc1)NC(=O)[C@H](CCC(=O)O)NC(=O)[C@H](CC(C)C)NC(=O)[C@H](CC(=O)O)NC(=O)[C@H](CC(C)C)NC(=O)[C@H](Cc1ccccc1)NC(=O)[C@H](Cc1ccc(O)cc1)NC(=O)[C@@H](NC(=O)[C@H](CC(N)=O)NC(=O)[C@@H](NC(=O)[C@H](CCC(N)=O)NC(=O)[C@H](CC(=O)O)NC(=O)[C@H](CC(C)C)NC(=O)[C@@H](N)CO)[C@@H](C)CC)C(C)C)C(=O)N[C@@H](CCCCN)C(=O)N[C@@H](CCCCN)C(=O)N[C@@H](CC(C)C)C(=O)N[C@@H](CCC(=O)O)C(=O)N[C@@H](CCC(=O)O)C(=O)N[C@@H](CO)C(=O)N[C@@H](Cc1ccc(O)cc1)C(=O)N[C@H](C(=O)N[C@@H](CC(=O)O)C(=O)N[C@@H](CC(C)C)C(=O)N[C@@H](CCCCN)C(=O)N[C@@H](CCC(=O)O)C(=O)N[C@@H](CC(C)C)C(=O)O)[C@@H](C)CC  IC50 (pseudovirus infection, inhibitor, luciferase; Caco-2, D614G pseudovirus; 24 h): 441 nM
CN(C)C(=O)CCCNC(=O)C[C@H](Cc1ccc(F)cc1)NC(=O)[C@@H](Cc1ccc(Cl)cc1Cl)NC(=O)[C@H](N)Cc1ccccc1C#N  EC50 (viral replication; USA-WA1/2020): 3500 nM
CC[C@H](C)[C@H](NC(=O)[C@H](C)NC(=O)[C@H](CCC(=O)O)NC(=O)[C@H](CCC(=O)O)NC(=O)[C@H](CC(C)C)NC(=O)[C@H](CCCCN)NC(=O)[C@H](CCCCN)NC(=O)[C@H](CCSC)NC(=O)[C@H](CCC(=O)O)NC(=O)[C@H](Cc1ccc(O)cc1)NC(=O)[C@H](CCC(=O)O)NC(=O)[C@H](CC(C)C)NC(=O)[C@H](CC(=O)O)NC(=O)[C@H](CC(C)C)NC(=O)[C@H](Cc1ccccc1)NC(=O)[C@H](Cc1ccc(O)cc1)NC(=O)[C@@H](NC(=O)[C@H](CC(N)=O)NC(=O)[C@@H](NC(=O)[C@H](CCC(N)=O)NC(=O)[C@H](CC(=O)O)NC(=O)[C@H](CC(C)C)NC(=O)[C@@H](N)CO)[C@@H](C)CC)C(C)C)C(=O)N[C@@H](CCCCN)C(=O)N[C@@H](CCCCN)C(=O)N[C@@H](CC(C)C)C(=O)N[C@@H](CCC(=O)O)C(=O)N[C@@H](CCC(=O)O)C(=O)N[C@H](C(=O)N[C@@H](Cc1ccc(O)cc1)C(=O)N[C@H](C(=O)N[C@@H](CC(=O)O)C(=O)N[C@@H](CC(C)C)C(=O)N[C@@H](CCCCN)C(=O)N[C@@H](CCC(=O)O)C(=O)N[C@@H](CC(C)C)C(=O)O)[C@@H](C)CC)[C@@H](C)O  IC50 (pseudovirus infection, inhibitor, luciferase; Caco-2, D614G pseudovirus; 24 h, dual mutations): 366 nM
O=C(O)C(O)=CC(=O)C1(Cc2ccc(Cl)cc2)CCN(C(=O)OCc2ccccc2)CC1  EC50 (viral replication; VeroE6-TMPRSS2): 19000 ± 3700 nM
O=C(NC1CCN(c2ncnc3[nH]cnc23)CC1)c1cccc(NS(=O)(=O)c2ccc([N+](=O)[O-])cc2)c1  IC50 (viral infection; Wuhan-Hu-1): 1030 nM
CC[C@H](C)[C@H](NC(=O)[C@H](C)NC(=O)[C@H](CCC(=O)O)NC(=O)[C@H](CCC(=O)O)NC(=O)[C@H](CC(C)C)NC(=O)[C@H](CCCCN)NC(=O)[C@H](CCCCN)NC(=O)[C@H](CCSC)NC(=O)[C@H](CCC(=O)O)NC(=O)[C@H](Cc1ccc(O)cc1)NC(=O)[C@H](CCC(=O)O)NC(=O)[C@H](CC(C)C)NC(=O)[C@H](CC(=O)O)NC(=O)[C@H](CC(C)C)NC(=O)[C@H](Cc1ccccc1)NC(=O)[C@H](Cc1ccc(O)cc1)NC(=O)[C@@H](NC(=O)[C@H](CC(N)=O)NC(=O)[C@@H](NC(=O)[C@H](CCC(N)=O)NC(=O)[C@H](CC(=O)O)NC(=O)[C@H](CC(C)C)NC(=O)[C@@H](N)CO)[C@@H](C)CC)C(C)C)C(=O)N[C@@H](CCCCN)C(=O)N[C@@H](CCCCN)C(=O)N[C@@H](CC(C)C)C(=O)N[C@@H](CCC(=O)O)C(=O)N[C@@H](CCC(=O)O)C(=O)N[C@@H](C)C(=O)N[C@@H](Cc1ccc(O)cc1)C(=O)N[C@H](C(=O)N[C@@H](CC(=O)O)C(=O)N[C@@H](CC(C)C)C(=O)N[C@@H](CCCCN)C(=O)N[C@@H](CCC(=O)O)C(=O)N[C@@H](CC(C)C)C(=O)O)[C@@H](C)CC  IC50 (pseudovirus infection, inhibitor, luciferase; Caco-2, D614G pseudovirus; 24 h, dual mutations): 282 nM
N#Cc1ccccc1C[C@@H](N)C(=O)N[C@H](Cc1ccc(Cl)cc1Cl)C(=O)N[C@H](CC(=O)NCCCS(N)(=O)=O)Cc1ccc(F)cc1  EC50 (viral replication; USA-WA1/2020): 7000 nM
O=C(O)C(O)=CC(=O)C1(Cc2ccc(Cl)cc2)CCN(C(=O)C=Cc2ccccc2)CC1  inhibition (viral replication; VeroE6; 50 µM): 15%
CN(C)CCCCNC(=O)C[C@H](Cc1ccc(F)cc1)NC(=O)[C@@H](Cc1ccc(Cl)cc1Cl)NC(=O)[C@H](O)Cc1ccccc1C#N  EC50 (viral replication; USA-WA1/2020): 700 nM
CC[C@H](C)[C@H](NC(=O)[C@H](C)NC(=O)[C@H](CCC(=O)O)NC(=O)[C@H](CCC(=O)O)NC(=O)[C@H](CC(C)C)NC(=O)[C@H](CCCCN)NC(=O)[C@H](CCCCN)NC(=O)[C@H](CCSC)NC(=O)[C@H](CCC(=O)O)NC(=O)[C@H](Cc1ccc(O)cc1)NC(=O)[C@H](CCC(=O)O)NC(=O)[C@H](CC(C)C)NC(=O)[C@H](CC(=O)O)NC(=O)[C@H](CC(C)C)NC(=O)[C@H](Cc1ccccc1)NC(=O)[C@@H](NC(=O)[C@@H](NC(=O)[C@H](CC(N)=O)NC(=O)[C@@H](NC(=O)[C@H](CCC(N)=O)NC(=O)[C@H](CC(=O)O)NC(=O)[C@H](CC(C)C)NC(=O)[C@@H](N)CO)[C@@H](C)CC)C(C)C)[C@@H](C)O)C(=O)N[C@@H](CCCCN)C(=O)N[C@@H](CCCCN)C(=O)N[C@@H](CC(C)C)C(=O)N[C@@H](CCC(=O)O)C(=O)N[C@@H](CCC(=O)O)C(=O)N[C@@H](CO)C(=O)N[C@@H](Cc1ccc(O)cc1)C(=O)N[C@H](C(=O)N[C@@H](CC(=O)O)C(=O)N[C@@H](CC(C)C)C(=O)N[C@@H](CCCCN)C(=O)N[C@@H](CCC(=O)O)C(=O)N[C@@H](CC(C)C)C(=O)O)[C@@H](C)CC  IC50 (pseudovirus infection, inhibitor, luciferase; Caco-2, D614G pseudovirus; 24 h): 645 nM
CC(C)(C)c1ccc(-c2cn(-c3ccc(C(=O)C=C(O)C(=O)O)cc3)nn2)cc1  EC50 (viral replication; VeroE6-TMPRSS2): 8500 ± 1300 nM
Cc1ccccc1S(=O)(=O)Nc1cccc(C(=O)NC2CCN(c3ncnc4[nH]cnc34)CC2)c1  relative infection (Wuhan-Hu-1; 0.09145 µM; baseline: untreated infected cells): 70.3%
NS(=O)(=O)c1ccc(-c2cn(-c3ccc(C(=O)C=C(O)C(=O)O)cc3)nn2)cc1  inhibition (viral replication; VeroE6; 50 µM): 15%
CC[C@H](C)[C@H](NC(=O)[C@H](C)NC(=O)[C@H](CCC(=O)O)NC(=O)[C@H](CCC(=O)O)NC(=O)[C@H](CC(C)C)NC(=O)[C@H](CCCCN)NC(=O)[C@H](CCCCN)NC(=O)[C@H](CCSC)NC(=O)[C@H](CCC(=O)O)NC(=O)[C@H](Cc1ccc(O)cc1)NC(=O)[C@H](CCC(=O)O)NC(=O)[C@H](CC(C)C)NC(=O)[C@H](CC(=O)O)NC(=O)[C@H](CC(C)C)NC(=O)[C@H](Cc1ccccc1)NC(=O)[C@@H](NC(=O)[C@@H](NC(=O)[C@H](CC(N)=O)NC(=O)[C@@H](NC(=O)[C@H](CCC(N)=O)NC(=O)[C@H](CC(=O)O)NC(=O)[C@H](CC(C)C)NC(=O)[C@@H](N)CO)[C@@H](C)CC)C(C)C)[C@@H](C)O)C(=O)N[C@@H](CCCCN)C(=O)N[C@@H](CCCCN)C(=O)N[C@@H](CC(C)C)C(=O)N[C@@H](CCC(=O)O)C(=O)N[C@@H](CCC(=O)O)C(=O)N[C@H](C(=O)N[C@@H](Cc1ccc(O)cc1)C(=O)N[C@H](C(=O)N[C@@H](CC(=O)O)C(=O)N[C@@H](CC(C)C)C(=O)N[C@@H](CCCCN)C(=O)N[C@@H](CCC(=O)O)C(=O)N[C@@H](CC(C)C)C(=O)O)[C@@H](C)CC)[C@@H](C)O  IC50 (pseudovirus infection, inhibitor, luciferase; Caco-2, D614G pseudovirus; 24 h): 892 nM

A few entries again:
Cc1ccccc1S(=O)(=O)Nc1cccc(C(=O)NC2CCN(c3ncnc4[nH]cnc34)CC2)c1  relative infection (Wuhan-Hu-1; 0.09145 µM; baseline: untreated infected cells): 70.3%
O=C(O)C(O)=CC(=O)C1(Cc2ccc(Cl)cc2)CCN(Cc2ccc3ccccc3c2)CC1  inhibition (viral replication; VeroE6; 50 µM): 50%
